Results gathered from unrelated publications.
Each line is one published result; not all experiments were run side by side. Numbers after ± are the reported error. Values after ≈ are worked out from the molar mass of the structure shown.

Sequences of proteins named here, by UniProt entry; tags and fusion partners are left off.
UniProt P47898, whole entry: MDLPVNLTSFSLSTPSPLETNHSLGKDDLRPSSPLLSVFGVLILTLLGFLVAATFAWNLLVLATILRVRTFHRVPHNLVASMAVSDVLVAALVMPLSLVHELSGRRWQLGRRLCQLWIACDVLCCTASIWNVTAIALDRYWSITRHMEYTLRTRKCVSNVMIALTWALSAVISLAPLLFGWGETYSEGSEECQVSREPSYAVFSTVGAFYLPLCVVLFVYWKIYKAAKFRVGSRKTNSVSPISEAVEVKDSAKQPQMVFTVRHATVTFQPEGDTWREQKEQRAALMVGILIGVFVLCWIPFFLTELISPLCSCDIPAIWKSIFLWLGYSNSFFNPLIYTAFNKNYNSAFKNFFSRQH
UniProt P41145, whole entry: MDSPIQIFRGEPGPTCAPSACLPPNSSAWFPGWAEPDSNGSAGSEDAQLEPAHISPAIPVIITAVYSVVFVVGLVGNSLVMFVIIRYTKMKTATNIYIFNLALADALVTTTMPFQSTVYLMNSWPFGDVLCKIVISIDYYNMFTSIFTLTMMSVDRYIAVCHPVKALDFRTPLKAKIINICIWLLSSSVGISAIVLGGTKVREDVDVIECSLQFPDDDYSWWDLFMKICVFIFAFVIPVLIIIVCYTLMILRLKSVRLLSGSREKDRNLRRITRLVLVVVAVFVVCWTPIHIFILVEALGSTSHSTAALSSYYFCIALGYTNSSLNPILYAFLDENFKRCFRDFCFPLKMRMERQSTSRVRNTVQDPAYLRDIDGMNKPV
UniProt Q00961, whole entry, looked up: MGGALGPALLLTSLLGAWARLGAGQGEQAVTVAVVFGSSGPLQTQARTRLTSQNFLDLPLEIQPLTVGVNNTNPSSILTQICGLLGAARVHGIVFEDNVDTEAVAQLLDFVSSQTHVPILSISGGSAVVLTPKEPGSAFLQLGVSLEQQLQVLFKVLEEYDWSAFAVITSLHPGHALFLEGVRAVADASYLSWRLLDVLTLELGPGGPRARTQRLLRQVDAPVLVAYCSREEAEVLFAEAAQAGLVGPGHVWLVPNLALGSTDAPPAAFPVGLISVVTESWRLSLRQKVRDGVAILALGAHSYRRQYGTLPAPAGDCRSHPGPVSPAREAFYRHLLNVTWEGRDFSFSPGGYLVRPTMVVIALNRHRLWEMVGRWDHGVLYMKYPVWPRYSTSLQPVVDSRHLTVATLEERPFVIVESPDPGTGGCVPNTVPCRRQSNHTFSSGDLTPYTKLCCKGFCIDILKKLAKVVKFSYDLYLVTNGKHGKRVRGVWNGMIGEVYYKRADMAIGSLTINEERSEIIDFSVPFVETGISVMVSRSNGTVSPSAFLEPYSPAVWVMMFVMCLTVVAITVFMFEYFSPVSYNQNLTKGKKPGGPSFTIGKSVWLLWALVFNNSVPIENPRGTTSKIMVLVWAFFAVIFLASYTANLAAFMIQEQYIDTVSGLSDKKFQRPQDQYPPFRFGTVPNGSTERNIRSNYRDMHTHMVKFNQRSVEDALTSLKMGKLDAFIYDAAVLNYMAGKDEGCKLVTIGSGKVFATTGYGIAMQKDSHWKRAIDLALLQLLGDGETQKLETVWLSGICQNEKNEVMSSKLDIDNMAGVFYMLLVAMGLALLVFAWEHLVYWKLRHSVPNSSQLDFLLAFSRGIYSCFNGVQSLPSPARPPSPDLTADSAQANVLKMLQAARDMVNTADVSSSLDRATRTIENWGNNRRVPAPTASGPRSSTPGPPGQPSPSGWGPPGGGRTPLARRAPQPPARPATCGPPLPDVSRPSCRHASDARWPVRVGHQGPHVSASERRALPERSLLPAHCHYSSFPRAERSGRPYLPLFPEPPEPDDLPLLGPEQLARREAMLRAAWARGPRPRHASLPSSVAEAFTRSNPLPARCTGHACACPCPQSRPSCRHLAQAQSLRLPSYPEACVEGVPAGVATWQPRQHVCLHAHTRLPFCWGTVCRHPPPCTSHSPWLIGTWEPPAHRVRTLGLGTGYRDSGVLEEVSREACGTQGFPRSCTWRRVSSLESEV

CC[C@H](C)[C@@H]1NC(=O)[C@H](CCC(=O)O)NC(=O)[C@@H]2CCCN2C(=O)[C@H](Cc2c[nH]cn2)NC(=O)[C@H](CC(=O)O)NC(=O)[C@H](Cc2ccc(O)cc2)NC(=O)[C@H](CC(N)=O)NC(=O)[C@@H]2CSSC[C@@H]3NC(=O)CNC(=O)CNC(=O)CNC(=O)[C@H](C)NC(=O)[C@H](C)NC(=O)CNC(=O)CNC(=O)[C@H](CSSC[C@H](NC3=O)C(=O)N[C@@H](CO)C(=O)N[C@@H](CC(=O)O)C(=O)N3CCC[C@H]3C(=O)N[C@@H](CCCNC(=N)N)C(=O)N2)NC1=O — inhibition (Cav2.1 rabbit; Ba2+ current; 200 nM): 20 ± 4%
O=c1ccc2nc3ccc(OCc4ccc([N+](=O)[O-])o4)cc3oc-2c1I — MIC90 (Mycobacterium tuberculosis; mc2 6206, fbiC mutant, clofazimine-resistant): inactive
C=C[C@@H]1[C@H]2CCC[C@]1(c1cccc(O)c1)CCN2CCc1ccccc1 — half-life (rat liver microsomes 0.5 mg/mL; 1 µM, pH 7.4, with: NADPH): 2.4 min
CCN1CCN(Cc2ccc(NC(=O)c3ccc(C)c(/C=C/c4cnc5[nH]ccc5c4OC)c3)cc2C(F)(F)F)CC1 — log2 fold change (TFG-NTRK1 fusion; kinase-CDC37 interaction, cell-based kinome screen; 5 µM; reference: vehicle): -0.687
C(CCCCCN1COOC2(CCCC2)OOC2(CCCC2)OOC1)CCCCN1COOC2(CCCC2)OOC2(CCCC2)OOC1 — IC50 (Jurkat; cytotoxicity, 7-AAD flow cytometry): 3.24 ± 0.24 µM
COc1ccc(Nc2cc(C)c3cc(NC(=O)c4ccc(N(C)C)cc4)ccc3n2)cc1 — IC50 (dengue virus 4; viral replication, plaque reduction; BHK-21, TVP360): 1 to 10 µM
C[C@H](Cc1ccc(O)c(O)c1)[C@@H](C)Cc1ccc(O)c(O)c1 — total amount delivered (human skin; 1% w/v solution, 24 h): 6.65 ± 0.49 µg
CCCCCCCCCCCCCC(=S)NCCCC[C@H](NC(=O)OCc1ccccc1)C(=O)Nc1cccc(O)c1 — GI50 (HCT-116; cell growth): 6.2 ± 0.2 µM
CSCC[C@@H](C=O)NC(=O)[C@H](CC(C)C)NC(=O)[C@H](CC(C)C)NC(C)=O — CC50 (Caco-2; neutral red uptake; 48 h): > 100 µM
CC#C/C(=N\OC[C@H]1COCCN1)c1ccc2ncnc(Nc3ccc(OCc4cccc(F)c4)c(Cl)c3)c2c1 — IC50 (BT-474; cell growth, WST-8; 72 h): 0.0099 ± 0.0008 µM
O=[N+]([O-])c1cn2c(n1)OC[C@@H](OCc1ccc(OC(F)(F)F)cc1)C2 — MIC50 (Mycobacterium bovis; BCG Tac^r7.1, thyA A148E missense; TA-C-resistant thyA mutant): 0.2 µM (≈ 0.0719 µg/mL)
CO[C@]12CC[C@@]3(C[C@@H]1[C@](C)(O)C(C)(C)C)[C@H]1Cc4ccc(O)c5c4[C@@]3(CCN1CC1CC1)[C@H]2O5 — AD50 (antagonist, tail-flick test; mice; with: morphine): 1 mg/kg
CCCN1CCN(c2ccc3c(c2)C2CC3CCN2C(=O)OCc2ccccc2)CC1 (stereo not shown) — Ki (5-hydroxytryptamine receptor 5A (HTR5A, Homo sapiens, UniProt P47898); binding, radioligand binding): 3.24 µM
Cn1c([N+](=O)[O-])cnc1COc1ccc2nc3ccc(=O)cc-3oc2c1 — MIC90 (Mycobacterium tuberculosis; mc2 6206 PA-824-resistant ddn mutant; 7 days): > 256 µM
COc1cc(OC)c2ccccc2c1C=C1C(=O)NC(=S)NC1=O — protein level (Ly19, SU-DHL-8; ELISA, item: HMOX1; 4 µM, 24 h): increased
CCc1nc(N)nc(N)c1C#C[C@H](C)c1cc(OC)cc(-c2ccc(C(=O)O)cc2)c1 — MIC (Staphylococcus aureus; MRSA isolate HH 714): 5 µg/mL (≈ 12 µM)
COCCOc1ccc2nc3ccc(=O)cc-3oc2c1 — MIC90 (Mycobacterium tuberculosis; mc2 6206 clofazimine-resistant fbiC mutant; 7 days): 19 µM (≈ 5.15 µg/mL)
CO[C@]12CC[C@@]3(C[C@@H]1[C@@H](O)c1ccccc1)[C@H]1Cc4ccc(O)c5c4[C@@]3(CCN1CC1CC1)[C@H]2O5 — Ki (Kappa-type opioid receptor (OPRK1, Homo sapiens, UniProt P41145); binding, radioligand displacement; CHO; with: [3H]U-69593): 0.00088 ± 3e-05 µM
O=C(Nc1ccccc1)c1cc([N+](=O)[O-])ccc1Cl — revertants (Salmonella typhimurium; Ames plate incorporation; TA98; 150 µg/plate, without metabolic activation): 130 ± 13 revertants/plate
Cc1c(N2CC[C@@H](CN)C2)c(F)cc2c(=O)n(N)c(=O)n(C3CC3)c12 — maximal DNA cleavage (Staphylococcus aureus topoisomerase IV GrlA S81Y): 30.3%
O=c1ccc2nc3ccc(OCc4ccc([N+](=O)[O-])cc4)cc3oc-2c1 — MIC90 (Mycobacterium tuberculosis; mc2 6206 bedaquiline-resistant MmpL5 regulator mutant; 7 days): > 256 µM
CCOc1ccc2cc(-c3nn(CC4CCN(C)CC4)c4ncnc(N)c34)ccc2n1 — half-life (concentration not given, rat): > 120 min
CCN(CC)C(=O)Oc1ccc(C(=O)Nc2cccc3cc[nH]c23)cc1 — weighted decay time constant (NMDA receptor EPSC, inhibitor, whole-cell patch clamp; subthalamic nucleus neurons, rat, subthalamic nucleus slices; 10 µM; reference: vehicle): decreased
COc1ccc(OC[C@H]2c3cccn3CC(=O)N2Cc2cccc(F)c2)cc1 — maximum potentiation (Glutamate receptor ionotropic, NMDA 2C, with GluN1 (Rattus norvegicus, UniProt Q00961); ion current, positive allosteric modulator, two-electrode voltage clamp; Xenopus oocytes expressing GluN1/GluN2C): 292%
O=c1ccc2[n+]([O-])c3ccc(O)cc3oc-2c1 — MIC90 (Mycobacterium tuberculosis; mc2 6206 clofazimine-resistant fbiC mutant; 7 days): > 256 µM
CCCCCCC1c2ccc(O)cc2Oc2cc(O)ccc21 — MIC (Escherichia coli; MC4100; with: NAB7061 4 µg/mL): 1.2 µg/mL (≈ 4.02 µM)
CC(C)COc1ccc2nc3ccc(=O)cc-3oc2c1 — MIC90 (Mycobacterium tuberculosis; mc2 6206 clofazimine-resistant fbiC mutant; 7 days): 6.9 µM (≈ 1.86 µg/mL)
CSc1nc(Cl)cc(Sc2nnc(-c3cc(C(F)(F)F)cc(C(F)(F)F)c3)[nH]2)n1 — MIC (Klebsiella spp.; with: polymyxin B nonapeptide 25 µg/mL): 23.5 µg/mL (≈ 49.8 µM)

For quick reference, copied from above:
COc1ccc(Nc2cc(C)c3cc(NC(=O)c4ccc(N(C)C)cc4)ccc3n2)cc1 — IC50 (dengue virus 4; viral replication, plaque reduction; BHK-21, TVP360): 1 to 10 µM
C[C@H](Cc1ccc(O)c(O)c1)[C@@H](C)Cc1ccc(O)c(O)c1 — total amount delivered (human skin; 1% w/v solution, 24 h): 6.65 ± 0.49 µg
